Measured values pooled from the literature.
Each numbered part is a random draw from the data of one study; scales do not carry over between parts.

Sample 1
Target: Sal-like protein 4, full length isoform A (SALL4, Homo sapiens, UniProt Q9UJQ4, residues 1-1053)
Chain of UniProt Q9UJQ4 (whole entry, looked up): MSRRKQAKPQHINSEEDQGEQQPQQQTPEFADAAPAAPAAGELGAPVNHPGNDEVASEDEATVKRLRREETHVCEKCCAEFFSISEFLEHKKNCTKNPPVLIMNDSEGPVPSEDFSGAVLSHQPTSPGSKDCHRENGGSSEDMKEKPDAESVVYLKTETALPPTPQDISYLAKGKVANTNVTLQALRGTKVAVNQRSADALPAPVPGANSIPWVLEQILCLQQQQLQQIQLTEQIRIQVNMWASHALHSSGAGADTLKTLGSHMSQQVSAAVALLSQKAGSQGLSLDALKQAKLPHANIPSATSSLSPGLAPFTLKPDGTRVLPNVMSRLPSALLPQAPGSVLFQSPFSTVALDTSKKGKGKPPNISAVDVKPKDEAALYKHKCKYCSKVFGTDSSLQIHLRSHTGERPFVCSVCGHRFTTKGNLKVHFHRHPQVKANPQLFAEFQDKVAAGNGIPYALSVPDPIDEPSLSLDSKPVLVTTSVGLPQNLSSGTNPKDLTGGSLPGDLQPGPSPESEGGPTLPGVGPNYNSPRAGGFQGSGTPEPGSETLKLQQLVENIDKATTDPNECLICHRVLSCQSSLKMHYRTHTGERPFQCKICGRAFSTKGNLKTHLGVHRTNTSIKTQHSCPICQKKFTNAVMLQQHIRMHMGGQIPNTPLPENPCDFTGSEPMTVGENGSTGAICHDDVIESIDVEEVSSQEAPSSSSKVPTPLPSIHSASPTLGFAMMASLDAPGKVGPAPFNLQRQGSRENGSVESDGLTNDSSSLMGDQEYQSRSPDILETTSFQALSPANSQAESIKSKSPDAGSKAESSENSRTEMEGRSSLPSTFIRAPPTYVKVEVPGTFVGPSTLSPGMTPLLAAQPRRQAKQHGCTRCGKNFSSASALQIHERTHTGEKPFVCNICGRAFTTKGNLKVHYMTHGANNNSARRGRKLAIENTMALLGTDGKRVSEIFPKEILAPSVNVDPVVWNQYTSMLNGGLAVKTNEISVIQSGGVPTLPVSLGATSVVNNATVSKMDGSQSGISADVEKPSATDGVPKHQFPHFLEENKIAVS
Technique: universal PBM
Molecule type: double-stranded DNA, one strand shown
Matrix: in vitro
Tested at: 600 nM
Notes: 8-mer, flanks averaged, mean of replicates
Direction: higher = stronger binding
Quantity: E-score
Sequence = GTGCTTAA; result = 0.0365
Sequence = CATCGCAA; result = 0.036
Sequence = AAATCGTC; result = 0.104
Sequence = ATTGTACA; result = 0.18
Sequence = AGTGAAAG; result = 0.153
Sequence = TCGAGGCA; result = -0.00852
Sequence = CTCACTTA; result = 0.0406
Sequence = ACAGACAA; result = 0.263
Sequence = CACTAACG; result = 0.0912
Sequence = AACGTGGG; result = -0.144
Sequence = CTGGGGCA; result = -0.361
Sequence = CAAGCCTC; result = -0.279
Sequence = AAGTATCC; result = -0.00365
Sequence = CACGAGCG; result = -0.192
Sequence = ACATCGGC; result = -0.127
Sequence = AGCAGTCA; result = -0.161
Sequence = GAATCAGA; result = 0.0041
Sequence = ACCGGTTG; result = -0.256
Sequence = GTTCACCA; result = -0.131
Sequence = ACGCTTTG; result = -0.0512
Sequence = CGATAAAA; result = 0.247

Sample 2
Target: Histone acetyltransferase KAT6A, both winged helices, GST fusion (KAT6A, Homo sapiens, UniProt Q92794, residues 1-181)
Technique: protein binding microarray
Molecule type: double-stranded DNA, one strand shown
Matrix: in vitro
Tested at: not given
Notes: 8-mer, flanks averaged, mean of 2 arrays, mostly near background
Baseline: not given
Direction: higher = stronger binding
Quantity: E-score
Residues (chain): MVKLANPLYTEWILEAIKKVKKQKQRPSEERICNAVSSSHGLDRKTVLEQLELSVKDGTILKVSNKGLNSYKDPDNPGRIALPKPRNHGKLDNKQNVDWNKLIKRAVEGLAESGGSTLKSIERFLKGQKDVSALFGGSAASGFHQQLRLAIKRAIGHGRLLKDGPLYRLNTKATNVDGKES
Sequence = ATAAGAAG; result = -0.0801
Sequence = ACCATCGG; result = -0.000635
Sequence = ACTGCACT; result = -0.114
Sequence = ATTCTACA; result = -0.0957
Sequence = AGAGAGTC; result = -0.147
Sequence = AGTACCCC; result = -0.107
Sequence = AGGTTGAT; result = -0.136
Sequence = GACATTAA; result = 0.0171
Sequence = CGTATTAC; result = 0.069
Sequence = AGGTTGCG; result = -0.0213
Sequence = CCGCTCTC; result = 0.158
Sequence = ATTCCACA; result = -0.117
Sequence = CTACTACC; result = 0.0151
Sequence = ATGGACAA; result = -0.191
Sequence = ACTAGATC; result = -0.109
Sequence = ACCCTCTG; result = -0.194
Sequence = ACCGAGCT; result = -0.0288
Sequence = GGGCCGGA; result = 0.0268
Sequence = CGACAGGA; result = 0.0245
Sequence = GGTCTTAA; result = 0.0285

Sample 3
Target: RNA binding protein fox-1 homolog 2, RRM domain, GST-SBP tag (RBFOX2, Homo sapiens, UniProt O43251-10, residues 100-194)
Technique: RNA Bind-n-Seq
Molecule type: RNA
Matrix: in vitro
Tested at: 365 nM
Notes: natural RNA segment, single round, ends assumed
Baseline: no-protein control
Direction: higher = stronger binding
Quantity: RBNS enrichment (R)
Target sequence (chain): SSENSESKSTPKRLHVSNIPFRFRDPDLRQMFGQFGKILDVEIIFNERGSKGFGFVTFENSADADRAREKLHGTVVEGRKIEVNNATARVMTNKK
Sequence = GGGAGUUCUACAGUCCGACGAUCUAAGAAACACAUUUAACAUCCGAAGAAGCAAUGCUGUCCUCACUUGAUGUUUCUCUUCUCAACCCAGCAAUGGAGAGCAGGGCUUGCAAAGCCGUACAGAGCCUACGUGCUGGAAUUCUCGGGUGCCAA; result = 0.379
Sequence = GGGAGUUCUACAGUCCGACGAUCAGCAAGGAUCCAGACGAAGUGGAAACAGAGAGCAGGGGCCCUCCCACCACCUCUGACCUCCUUGCCCCAGACCUGCUGGAGCAAGGGGACUGGAGCCUGUCCCAGAACAAUGGAAUUCUCGGGUGCCAA; result = 0.377
Sequence = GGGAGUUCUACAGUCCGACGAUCAAAAAUCUAUGAAGUUAAAAGAUCGUAGAAGCCAAAUGAAAUGUACAUAUCUACUGACUGAUGACAAGGGAAUUUCAUUAGGAAGAAGGUAAAGAAACAUCGUUGAGUAGUGGAAUUCUCGGGUGCCAA; result = 0.428
Sequence = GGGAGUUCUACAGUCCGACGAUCUCUAAAGCCAUAGCUUUUGUUUUAUAUUGAGACAUAUAAUGUGUAAACUUAGUUCCCAAAUAAAUCAAUCCUGUCUUUCCCAUCUUCGAUGUUGCUAAUAUUAAGGCUUCUGGAAUUCUCGGGUGCCAA; result = 0.315
Sequence = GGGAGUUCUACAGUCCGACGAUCAUAUGAAUAUUUCUCUCCAUGUAUAGUGUGAGCUGCCAAUGCAUUAUCUUAAUACAUCAAGAAGGAAAUCAGAUUUCAGGCACACAUUAGCAAUUGUUUGUUAAUGUCCUUGGAAUUCUCGGGUGCCAA; result = 0.363
Sequence = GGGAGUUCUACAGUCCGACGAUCCUACAACCAGCUGGCACUGACUGCUCGACUUUUCCGGCCACGGCUCAUCAUAGCUGGCACCAGCGCCUAUGCUCGCCUCAUUGACUACGCCCGCAUGAGAGAGGUGUGUGUGGAAUUCUCGGGUGCCAA; result = 8.01
Sequence = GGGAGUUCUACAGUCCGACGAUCUCUCCUCGGCUUCUUGCACUGAGCUGGCCUCACGUGUUGACUGAGGGAGCCCCUGAGCCCCAACCUUCCCCUGCCUCAGCCUUUGAUUGUCCAGGGUGAAGCUGUGGGAGUGGAAUUCUCGGGUGCCAA; result = 0.807
Sequence = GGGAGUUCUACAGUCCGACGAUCAAGUGGAUUCUCUCCGUGUCCCUGCCCCCCACCCAAACUUGAACUAUACCUAUUACAUUUCCAGGCAGUAUCCCUAAGAUGAGAUCCUGGAGAAAGGACUAGGGGAAGUAUGGAAUUCUCGGGUGCCAA; result = 0.277
Sequence = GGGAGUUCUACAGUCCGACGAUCAUAAAGCUAACCUUGAUAAUUUUACUUUUAAUUAAUUAUCUAAAUGAAAAAUGCUAUUAGCUGAACCACAUCCACAACAGCACAUAGAGCUCUAGAAGAGUUGAAACAUAUGGAAUUCUCGGGUGCCAA; result = 0.416
Sequence = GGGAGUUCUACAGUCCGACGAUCGAAGCCCUACCAGGCUUCCCAGCAGCGCCACCUUCAGGCAGGAGUCAGAACUGUCCCCUUGGAGAUGUGACUGUGUUUGUAACAAUAUUGUCCUCACUGCCGUGGACACGUGGAAUUCUCGGGUGCCAA; result = 0.29
Sequence = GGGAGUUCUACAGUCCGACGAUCUUUAAAAAGCCAGAGAUUUCUUCUGUCUAAACUGUUUCUAUAGCAUUUUCUAAACAAAAAAAAUGGUUUUUUUCUUUGCCUUGUAAUAAGAUUGUAAAUCCAUUUCCUGCUGGAAUUCUCGGGUGCCAA; result = 5.35
Sequence = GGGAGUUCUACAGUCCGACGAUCAAUUGUAGAAGUUGAAACAUGAUCGCUAUAUUUCAAUGUUUAUUCCCGUUCAACGUACUGCCUCUAAGCUUUCCUUUAAUUUCUUUAUUUUUAUUUUUGUUCGAAGCAUGUGGAAUUCUCGGGUGCCAA; result = 4.4

Sample 4
Target: Prothrombin, mature alpha-thrombin (F2, Homo sapiens, UniProt P00734)
Technique: aptamer microarray, sandwich
Molecule type: DNA with 2'F-ANA
Matrix: in vitro
Tested at: 200 nM
Notes: whole 15-mer aptamer, many near background
Added: Cy3 exosite-II aptamer, 400 nM
Direction: higher = stronger binding
Quantity: mean fluorescence intensity
Sequence: GGTTGGTGTGGTTGG
Modification = 2'F-ANA at 1 2 3 4 7 9 11 14; result = 71.5 a.u.
Modification = 2'F-ANA at 1 4 6 8 9 12 13 14; result = 53.5 a.u.
Modification = 2'F-ANA at 1 3 5 6 8 10 12 13 14 15; result = 46.2 a.u.
Modification = 2'F-ANA at 1 2 3 4 7 8 9 10 12 13 14 15; result = 51.3 a.u.
Modification = 2'F-ANA at 1 3 5 8 9 10 11 13; result = 51.6 a.u.
Modification = 2'F-ANA at 2 3 6 7 9 11; result = 594 a.u.
Modification = 2'F-ANA at 2 3 5 8 9 11 13; result = 84.4 a.u.
Modification = 2'F-ANA at 3 4 6 7 9 10 11 12 15; result = 268 a.u.
Modification = 2'F-ANA at 1 2 4 6 8 9 11 12 13 15; result = 150 a.u.
Modification = 2'F-ANA at 3 4 5 6 7 11 13 15; result = 60.6 a.u.
Modification = 2'F-ANA at 3 5 6 10 11 15; result = 135 a.u.
Modification = 2'F-ANA at 1 4 8 11 13 14 15; result = 52.5 a.u.
Modification = 2'F-ANA at 1 2 3 6 12 13 15; result = 286 a.u.
Modification = 2'F-ANA at 1 3 5 12 13; result = 96.2 a.u.
Modification = 2'F-ANA at 1 2 4 7 8 11 14; result = 69.9 a.u.
Modification = 2'F-ANA at 1 3 7 10 13 14 15; result = 60.2 a.u.
Modification = 2'F-ANA at 1 2 6 7 8 9 10 11 13 14; result = 52.5 a.u.
Modification = 2'F-ANA at 3 6 11 13 14; result = 517 a.u.
Modification = 2'F-ANA at 1 3 4 5 6 7 11 15; result = 53.7 a.u.
Modification = 2'F-ANA at 1 2 5 7 13 14 15; result = 46.1 a.u.
Modification = 2'F-ANA at 1 2 4 5 6 7 9 10 11 12 15; result = 59.2 a.u.
Modification = 2'F-ANA at 2 3 6 14 15; result = 350 a.u.
Modification = 2'F-ANA at 1 2 6 7 8 12 14 15; result = 74.8 a.u.
Modification = 2'F-ANA at 1 3 4 5 7 10 11 14 15; result = 54.1 a.u.
Modification = 2'F-ANA at 1 3 5 6 8 9 10 12 13 14 15; result = 46.6 a.u.

A few entries again (sample 1):
Sequence = CACTAACG; result = 0.0912
Sequence = CATCGCAA; result = 0.036
Sequence = CAAGCCTC; result = -0.279
Sequence = GTGCTTAA; result = 0.0365
Sequence = AAATCGTC; result = 0.104
Sequence = CGATAAAA; result = 0.247
Sequence = AACGTGGG; result = -0.144
Sequence = ACAGACAA; result = 0.263
